# Results of several laboratories.
# Each numbered part is a random draw from the data of one study; scales do not carry over between parts.

# Sample 1 — technique: protein-binding microarray; form: double-stranded DNA, one strand shown; medium: in vitro; concentration: 2540 nM top; setting: 60-bp whole probe; added: salmon DNA 0.4 mg/ml; reference: random background probes; direction: higher = stronger binding; all sequences stand within: GCCTAGCAC … GTCTTGATTCGCTTGACGCTGCTG
# Target: Interferon regulatory factor 3, full length, phosphomimetic (IRF3, Homo sapiens, UniProt Q14653, residues 1-427, S386D/S396D/S398D/S402D/T404D/S405D)
# UniProt Q14653, sequence (whole entry, unmodified, looked up): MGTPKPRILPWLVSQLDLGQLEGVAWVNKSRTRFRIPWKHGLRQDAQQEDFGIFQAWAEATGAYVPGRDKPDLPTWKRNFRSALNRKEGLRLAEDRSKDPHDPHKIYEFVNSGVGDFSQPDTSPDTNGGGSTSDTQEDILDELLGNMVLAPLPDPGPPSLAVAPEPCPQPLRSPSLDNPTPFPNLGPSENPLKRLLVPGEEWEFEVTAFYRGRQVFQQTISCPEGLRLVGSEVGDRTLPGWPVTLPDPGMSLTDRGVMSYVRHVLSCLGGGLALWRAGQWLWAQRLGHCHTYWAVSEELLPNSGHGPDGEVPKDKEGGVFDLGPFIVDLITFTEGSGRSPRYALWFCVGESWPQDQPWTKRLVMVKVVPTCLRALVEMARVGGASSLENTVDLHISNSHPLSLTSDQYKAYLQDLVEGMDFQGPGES
Oligonucleotide,fitted relative affinity [z-score]
GACGATATCGGGACTGGAAACGTGCTA,0.326
GACGATATCAGTTTCAAGACGTGCTAG,2.18
GACGATCTAAGTCTCGAGACGTGCTAG,0.149
TCAATTTTCCCTCCCTAACTGTGCTAG,2.47
GACGGTCCCGGACTGGGGACGTGCTAG,-0.441
GACTTTTTACCTGTGGTGTAGTGCTAG,0.86

# Sample 2 — technique: universal PBM; form: double-stranded DNA, one strand shown; medium: in vitro; concentration: not given; direction: higher = stronger binding
# Target: Sal-like protein 4, full length isoform B (SALL4, Homo sapiens, UniProt Q9UJQ4-2, residues 1-616)
# Setting: 8-mer, flanks averaged, mean of replicates
# Target sequence (chain): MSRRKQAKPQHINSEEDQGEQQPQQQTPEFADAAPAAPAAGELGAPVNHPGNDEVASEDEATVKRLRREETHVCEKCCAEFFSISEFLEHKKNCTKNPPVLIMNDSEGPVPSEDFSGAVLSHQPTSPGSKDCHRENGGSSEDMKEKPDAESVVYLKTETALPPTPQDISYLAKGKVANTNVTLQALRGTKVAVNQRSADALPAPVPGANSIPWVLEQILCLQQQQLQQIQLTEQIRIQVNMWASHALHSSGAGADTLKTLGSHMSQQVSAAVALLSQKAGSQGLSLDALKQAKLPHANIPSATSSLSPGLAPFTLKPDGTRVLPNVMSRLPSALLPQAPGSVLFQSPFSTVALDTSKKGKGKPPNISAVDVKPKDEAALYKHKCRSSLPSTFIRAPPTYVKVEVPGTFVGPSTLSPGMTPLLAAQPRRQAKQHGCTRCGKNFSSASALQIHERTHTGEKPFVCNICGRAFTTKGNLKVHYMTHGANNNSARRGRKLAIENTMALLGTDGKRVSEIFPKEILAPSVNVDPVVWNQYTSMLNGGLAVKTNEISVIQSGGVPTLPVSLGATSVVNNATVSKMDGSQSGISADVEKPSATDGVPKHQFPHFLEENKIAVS
Oligonucleotide,E-score
GAAATACA,0.221
ATCATGTG,0.155
CGAGACCG,-0.312
AGAGTAGG,0.0977
CCGACCGG,-0.368
GGGGAAAC,-0.211
ACGGCCCT,-0.276
AACCAGGC,-0.157
ACGCCTCC,-0.178
GCTAGGCA,-0.16

# Sample 3 — technique: RNA Bind-n-Seq; form: RNA; medium: in vitro; concentration: not given; reference: input RNA pool; direction: higher = stronger binding
# Target: RING finger protein unkempt homolog, zinc fingers 1-6, GST-SBP tag (UNK, Homo sapiens, UniProt Q9C0B0, residues 30-357)
# Setting: RNA with constant flanks, human and mouse sites, ends assumed
# All sequences stand within: GGGAGUUCUACAGUCCGACGAUC … CAACAGAGGAUUGAGCAUCA
# Target sequence (chain): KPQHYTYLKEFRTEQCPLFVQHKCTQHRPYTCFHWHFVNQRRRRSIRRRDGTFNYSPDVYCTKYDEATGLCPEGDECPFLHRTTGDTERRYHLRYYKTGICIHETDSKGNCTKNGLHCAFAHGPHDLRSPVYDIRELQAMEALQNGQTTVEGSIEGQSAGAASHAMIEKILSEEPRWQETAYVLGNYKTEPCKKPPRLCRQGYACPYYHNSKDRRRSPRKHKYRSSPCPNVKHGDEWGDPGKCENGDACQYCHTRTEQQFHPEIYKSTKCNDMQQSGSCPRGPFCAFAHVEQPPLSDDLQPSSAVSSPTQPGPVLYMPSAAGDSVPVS
Oligonucleotide,bound/input enrichment [ratio]
CUAUUGGUCUUAGACGAGUUCAAAAUGGAGAAAAGAAUCAGCAGAAUGUUCUAUAUAAUGACUUUUCUGUUUCUAACCUUGUGGGGCCCCUACCUGGUGGCCUGUUAUUGGAGAGUUUUU,0.151
GAGGAGAGGAAGGCAUCUUGUACGUCGUUACAUUUAUCAUAUUGGAAGUCCCUUAAGCUCCUAGGAUUUUUAGAUGUUGAAAAUACUCCCUGCGCCCGGCAUUCAAUAUUGUAUGGUUCA,1.43
UAUGGUUAUGAUUACCAUAACUAUCGUGGUGGAUAUGAAGAUCCAUACUAUGGUUAUGAAGAUUUUCAAGUUGGAGCUAGAGGAAGGGGUGGUAGAGGAGCAAGGGGUGCUGCUCCAUCC,0.541
CGUAGUCUCCUGCAGCGUCUGGGGUUUCCGUUGCAGUCCUCGGAACCAGGACCUCGGCGUGGCCUAGCGAGUUAUGGCGACGAAGGCCGUGUGCGUGCUGAAGGGCGACGGCCCAGUGCA,0.13
CUUACGUGUUUCCCUUUCCUUCGUUUGGUUGGUUGGUGGGAAGGUGGGUGGGUUUGUGUUUCCGUGUUGGCAGAUCUGGAGUAACGUGAGCUCUGGCAAUAAUGGCAGGCAGGCAGGUCA,0.263
ACGGAGGCGGGUUCUACAGAGACGUAGGCUGUCAGGGAGUGUUUAUUUCGCGUCCGCUUCUGUUUCUCCGCGCCCCUGUGCUGCCCCGACUCACAUACUCGUCCAGAACCGGCCUCAGCC,0.0909
UCGGAUGCAGCAAUUGAAGCCAUGAAUGGGCAGUACCUCUGUAACCGUCCUAUCACCGUAUCUUAUGCCUUCAAGAAGGACUCCAAGGGUGAGCGCCAUGGCUCAGCAGCCGAACGACUU,0.113

# Other studies, line by line
Molecule,target,assay,system,setting,scale,measurement,result
"PhoQ, residues 284 288 289 292 302 303 QWGLFV","PhoP, residues 12 14 15 18 19 GHCSL (Escherichia coli, UniProt P23836)","Sort-seq, measured: YFP reporter",E. coli,"PhoQ-PhoP variant library, added: 10 µM Mg2+","reference: high Mg2+ state, higher = stronger signaling",fold induction,5.36

# Repeated from above (sample 1):
Oligonucleotide,fitted relative affinity [z-score]
GACGATCTAAGTCTCGAGACGTGCTAG,0.149
GACGATATCGGGACTGGAAACGTGCTA,0.326
